Values quoted from earlier work as cited in several papers.
Lines come from different studies, so protocols differ. Converted amounts (≈) assume the structure as drawn.

| SMILES | target or system | assay | test system | setting | how to read | quantity | value |
| --- | --- | --- | --- | --- | --- | --- | --- |
| Nc1nc(O)c2ncn(COC(CO)CO)c2n1 | human cytomegalovirus | viral replication | UL97 F342Y mutant | concentration not given | relative to: wild type | cross-resistance fold change | 6 fold |
| C[C@H]1COc2c(N3CCN(C)CC3)c(F)cc3c(=O)c(C(=O)O)cn1c23 | Mycobacterium tuberculosis |  | H37Ra |  |  | MIC | 1 µg/mL |
| COc1ccc2c(c1O)-c1c(O)c(OC)cc3c1[C@H](C2)[N+](C)(C)CC3 |  | ABTS radical scavenging |  |  |  | IC50 | 27.6 µg/mL |
| CN1CC[C@]23c4c5ccc(O)c4O[C@H]2[C@@H](O)CC[C@H]3[C@H]1C5 |  | antinociception | mouse | subcutaneous |  | ED50 | 1.8 mg/kg |
| O=c1[nH]nc(-c2ccc(-c3nnn[nH]3)cc2)cc1O | influenza endonuclease | enzyme activity, inhibitor |  |  |  | IC50 | 3000 nM |
| N/C(CC(O)c1cc2c(F)cc(F)cc2c2cc(C(F)(F)F)ccc12)=N\c1ccc(F)cc1 (stereo not shown) | Plasmodium falciparum | parasite growth | TM90C2b |  |  | IC50 | 13 nM |
| Nc1ccn([C@@H]2O[C@H](CO)[C@@H](O)C2(F)F)c(=O)n1 |  |  | pancreatic cancer patients | dose not given |  | median progression-free survival | 2.51 months |
| CCCC(C(=O)c1ccc2c(c1)OCO2)N1CCCC1 (stereo not shown) |  |  | mouse, serotonin | intragastric, 20 mg/kg |  | serotonin level | no effect |
| CN1CC[C@]23c4c5ccc(O)c4O[C@H]2[C@@H](O)CC[C@@]3(O)[C@H]1C5 |  | analgesia, Haffner tail-clip test | mouse | subcutaneous |  | ED50 | 1.3 mg/kg |
| C/C(=C\C(=O)OCCCCCCCCC(=O)O)C[C@@H]1OC[C@H](C[C@@H]2O[C@H]2[C@@H](C)[C@H](C)O)[C@@H](O)[C@H]1O | Staphylococcus aureus |  | MRSA low-level resistant |  |  | MIC range | 16 to 512 µM (≈ 8.01 to 256 µg/mL) |
| COc1ccc2c3c1O[C@H]1[C@@H](O)CC[C@@]4(O)[C@@H](C2)N(C)CC[C@]314 |  | analgesia, Haffner tail-clip test | mouse | subcutaneous |  | ED50 | 10 mg/kg |
| NNC(=O)c1ccncc1 | Mycobacterium tuberculosis |  | H37Ra |  |  | MIC | 0.05 µg/mL |
| CC1(C)NC(=O)N(c2ccc(F)c(C(F)(F)F)c2)C1=O | Schistosoma mansoni |  | juvenile, infected mice | oral, 50 mg/kg single dose |  | worm burden reduction | 0% |
| CC1(C)S[C@@H]2[C@H](NC(=O)[C@H](N)c3ccccc3)C(=O)N2[C@H]1C(=O)O | Mycobacterium tuberculosis |  | H37Ra |  |  | MIC | 128 µg/mL |
| CC(=O)[C@H]1CC[C@H]2[C@@H]3CC[C@H]4C[C@@H](O)CC[C@]4(C)[C@H]3CC[C@]12C |  |  | male NIH Swiss mice | dose not given, 6 Hz seizure model |  | seizure protection | inactive |
| C/C=C/C[C@H](C)[C@@H](OC)[C@@H](C)[C@H](O)C[C@H]1OC(=O)C=C[C@H]1CC | A2780 ovarian cancer | cell growth |  |  |  | MIC | 26 nM |
| O=C1c2c(O)cc(O)cc2OC(c2ccc(O)c(O)c2)C1O (stereo not shown) |  | ABTS radical scavenging |  |  |  | IC50 | 0.83 µg/mL |
| CCCCCOc1ccc(C(=O)c2cccc3ccccc23)c2ccccc12 |  | mechanical allodynia | mouse CFA inflammatory pain model | dose not given, tolerance |  | reduction of anti-allodynic effect on repeated dosing | ~50% |
| CC(=O)c1c(O)c(C)c(O)c2c1OC1=CC(=O)C(C(C)=O)C(=O)C12C (stereo not shown) |  | ABTS radical scavenging |  |  |  | IC50 | 10.4 µg/mL |
| Nc1ccn([C@@H]2O[C@H](CO)[C@@H](O)C2(F)F)c(=O)n1 | Influenza A virus H1N1 |  |  |  |  | EC50 | 600 nM |
| O=c1oc2cc(O)ccc2c2oc3cc(O)ccc3c12 |  | DPPH radical scavenging |  |  |  | IC50 | 25.9 µg/mL |
| CC1(C)NC(=O)N(c2ccc(F)c(C(F)(F)F)c2)C1=O | Schistosoma mansoni |  | juvenile worms, mouse | oral, 50 mg/kg single dose |  | worm burden reduction | 0% |

For quick reference, copied from above:
| SMILES | target or system | assay | test system | setting | how to read | quantity | value |
| --- | --- | --- | --- | --- | --- | --- | --- |
| CC(=O)[C@H]1CC[C@H]2[C@@H]3CC[C@H]4C[C@@H](O)CC[C@]4(C)[C@H]3CC[C@]12C |  |  | male NIH Swiss mice | dose not given, 6 Hz seizure model |  | seizure protection | inactive |
| C/C=C/C[C@H](C)[C@@H](OC)[C@@H](C)[C@H](O)C[C@H]1OC(=O)C=C[C@H]1CC | A2780 ovarian cancer | cell growth |  |  |  | MIC | 26 nM |
| O=C1c2c(O)cc(O)cc2OC(c2ccc(O)c(O)c2)C1O (stereo not shown) |  | ABTS radical scavenging |  |  |  | IC50 | 0.83 µg/mL |
| CCCCCOc1ccc(C(=O)c2cccc3ccccc23)c2ccccc12 |  | mechanical allodynia | mouse CFA inflammatory pain model | dose not given, tolerance |  | reduction of anti-allodynic effect on repeated dosing | ~50% |
